Measurements pooled from the literature.
Lines come from different studies, so protocols differ. Numbers after ± are the reported error.
Cell line: HEK293

For `O=C(NCCCNS(=O)(=O)c1ccc(OC(F)(F)F)cc1)C1=Cc2ccccc2S1(=O)=O`, the protein level was < 40% (immunoblotting, item: REST protein; 3 µM, 3 days; relative to: DMSO).
With `O=c1[nH]c(CCl)nc2scc(-c3ccc(C(F)(F)F)cc3)c12` the EC50 was 3.9 ± 0.3 µM (cell viability, resazurin; 24 h).
For `N=C(N)Nc1ccc(NC(=O)c2ccc(Cl)c(Cl)c2)cc1OCc1ccccc1C(F)(F)F`, the IC50 was > 500 µM (cell growth, MTT; 48 h).
With `CC(C)C[C@@H](C=O)NC(=O)[C@H](CC(C)C)NC(=O)[C@H](CC(C)C)NC(=O)OCc1ccccc1` the FLuc activity was 1.06 (item: CD4 signal peptide-FLuc reporter; concentration not given, 2 h, time-course chase, unit not given, with: cycloheximide; relative to: untreated).
`COc1cc(NC(=O)c2cccc(Cl)c2)ccc1S(N)(=O)=O` gave an IC50 of > 100 µM (cell viability, MTT; 48 h).
With `CCOc1ccc(-c2nc(CNCCc3ccc(F)cc3)cs2)cc1` the selectivity index was 2.28 (MTT; relative to: CC50 over IC50).
`COc1cc(NC(=O)c2ccccc2[N+](=O)[O-])ccc1S(N)(=O)=O` gave an IC50 of > 100 µM (cell viability, MTT; 48 h).
`O=c1[nH]c(CCl)nc2scc(-c3cccc(F)c3)c12` has an EC50 of 6.5 ± 0.5 µM (cell viability, resazurin; 24 h).
With `COc1ccc(C(=O)Nc2ccc(NC(=N)N)c(OCc3cc(C)ccc3C)c2)cc1` the IC50 was > 500 µM (cell growth, MTT; 48 h).
`COc1cc(NC(=O)c2ccc(C)c([N+](=O)[O-])c2)ccc1S(N)(=O)=O` has an IC50 of > 100 µM (cell viability, MTT; 48 h).

Some of these lines once more:
`COc1cc(NC(=O)c2cccc(Cl)c2)ccc1S(N)(=O)=O` gave an IC50 of > 100 µM (cell viability, MTT; 48 h).
With `CCOc1ccc(-c2nc(CNCCc3ccc(F)cc3)cs2)cc1` the selectivity index was 2.28 (MTT; relative to: CC50 over IC50).
